{"data": "Measured values gathered from unrelated publications", "note": "Every numbered part comes from another study and shows a few of its results, in no order. Positions count from the first letter of the parent shown."}
{"data": "Study 1", "target": "ABI1, truncated, D143A, DHFR fusion (Arabidopsis thaliana)", "technique": "DHFR PCA, deep sequencing", "medium": "yeast", "notes": "methotrexate growth selection, single substitutions", "added": "(+)-ABA 1.4 µM", "baseline": "wild-type fitted maximum", "direction": "higher = stronger binding", "starting sequence": "PYL1, truncated, DHFR fusion (Arabidopsis thaliana); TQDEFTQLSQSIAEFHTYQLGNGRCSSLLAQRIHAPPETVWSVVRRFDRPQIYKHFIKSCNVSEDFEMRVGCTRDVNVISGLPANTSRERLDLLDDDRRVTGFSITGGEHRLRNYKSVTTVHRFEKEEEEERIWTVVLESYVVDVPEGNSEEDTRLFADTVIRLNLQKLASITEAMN"}
{"Substitution": "L8T", "relative binding score [%]": 15.4}
{"Substitution": "H122K", "relative binding score [%]": 7.3}
{"Substitution": "S11A", "relative binding score [%]": 76.2}
{"Substitution": "N177P", "relative binding score [%]": 42.1}
{"Substitution": "R99G", "relative binding score [%]": 8.13}
{"Substitution": "W134K", "relative binding score [%]": 12.2}
{"data": "Study 2", "target": "CCND3, cyclin fold, Cln2 fusion (human)", "technique": "yeast growth competition, sequencing", "medium": "yeast", "notes": "weak parent motif", "baseline": "not given", "direction": "higher = stronger binding", "starting sequence": "PKN2 docking peptide (human); VSAVQKLDFSDTM; partner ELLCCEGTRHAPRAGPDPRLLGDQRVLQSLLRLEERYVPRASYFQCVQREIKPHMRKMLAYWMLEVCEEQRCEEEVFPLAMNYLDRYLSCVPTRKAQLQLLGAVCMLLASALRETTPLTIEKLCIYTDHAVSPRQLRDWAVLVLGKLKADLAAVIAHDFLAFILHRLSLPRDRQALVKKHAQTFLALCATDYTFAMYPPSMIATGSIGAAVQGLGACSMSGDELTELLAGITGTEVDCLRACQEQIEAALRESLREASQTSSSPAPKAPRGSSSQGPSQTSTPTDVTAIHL"}
{"Substitution": "S2N", "normalised enrichment score": 0.107}
{"Substitution": "K6A", "normalised enrichment score": 0.15}
{"Substitution": "D8R", "normalised enrichment score": 0.107}
{"Substitution": "M13L", "normalised enrichment score": 0.0987}
{"Substitution": "M13R", "normalised enrichment score": 0.12}
{"Substitution": "V4C", "normalised enrichment score": 0.0837}
{"Substitution": "D11Q", "normalised enrichment score": 0.0624}
{"Substitution": "V4Q", "normalised enrichment score": 0.0541}
{"Substitution": "F9V", "normalised enrichment score": 0.0685}
{"Substitution": "K6C", "normalised enrichment score": 0.151}
{"Substitution": "S10F", "normalised enrichment score": 0.0429}
{"data": "Study 3", "target": "Phosphate system positive regulatory protein PHO4, full length, GST-tagged (PHO4, Saccharomyces cerevisiae, UniProt P07270, residues 1-312)", "technique": "competition protein-binding microarray", "molecule type": "double-stranded DNA, one strand shown", "medium": "in vitro", "tested at": "2 µM", "notes": "whole 60-bp probe, lowest competitor level", "added": "Cbf1 competitor, 0.05 µM", "direction": "higher = stronger binding", "sequence of UniProt P07270 (whole entry, looked up)": "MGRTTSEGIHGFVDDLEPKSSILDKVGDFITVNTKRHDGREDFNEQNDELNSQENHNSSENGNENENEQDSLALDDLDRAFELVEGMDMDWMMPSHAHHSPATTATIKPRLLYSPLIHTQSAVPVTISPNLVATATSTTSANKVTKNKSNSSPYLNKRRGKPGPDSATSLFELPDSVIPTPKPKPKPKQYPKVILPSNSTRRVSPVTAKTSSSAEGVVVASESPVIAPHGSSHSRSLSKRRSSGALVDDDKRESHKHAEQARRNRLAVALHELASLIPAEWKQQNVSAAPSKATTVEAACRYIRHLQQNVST"}
{"Oligonucleotide": "CTAACGAAGGTTTGGTGCGTGGGTGACAAGCCAAGTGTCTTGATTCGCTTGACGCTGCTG", "fluorescence intensity [a.u.]": 8840}
{"Oligonucleotide": "GCCGTTGAGTGCTTCGACGTGGCCGTCGAGTCCCCTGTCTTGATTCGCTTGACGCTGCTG", "fluorescence intensity [a.u.]": 4260}
{"Oligonucleotide": "CTTCTGTAAATTTGGAGTGTGGGTGGACGCGCCCCGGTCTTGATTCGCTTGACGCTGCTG", "fluorescence intensity [a.u.]": 5060}
{"Oligonucleotide": "AATAATTTATTTTATCATGTGACGCCGATCCGGGTGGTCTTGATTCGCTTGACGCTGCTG", "fluorescence intensity [a.u.]": 7660}
{"Oligonucleotide": "CGTCCTAGTGATTGGACCGTGGGTGCCATGAGGAAGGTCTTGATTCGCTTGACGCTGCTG", "fluorescence intensity [a.u.]": 9930}
{"Oligonucleotide": "GCAGAAGTAGCCAAAGATGTGACGCTACCGTTGTGAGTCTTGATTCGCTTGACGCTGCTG", "fluorescence intensity [a.u.]": 3310}
{"Oligonucleotide": "CTTCTGTAAATTTGTCACTCGACTTGACGCGCCCCGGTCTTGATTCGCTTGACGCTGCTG", "fluorescence intensity [a.u.]": 3230}
{"data": "Mixed results"}
{"Molecule": "PhoQ, residues 284 288 289 292 302 303 SSTLSG", "target": "PhoP, residues 12 14 15 18 19 LYHSL (Escherichia coli, UniProt P23836)", "test": "Sort-seq, measured: YFP reporter", "system": "E. coli", "setting": "PhoQ-PhoP variant library, added: 10 µM Mg2+", "how to read": "baseline: high Mg2+ state, higher = stronger signaling", "quantity": "fold induction", "value": 1.13}
{"note": "Some of these lines once more (study 2):"}
{"Substitution": "V4C", "normalised enrichment score": 0.0837}
{"Substitution": "M13L", "normalised enrichment score": 0.0987}
{"Substitution": "V4Q", "normalised enrichment score": 0.0541}
{"Substitution": "S2N", "normalised enrichment score": 0.107}
